Assay results collected from several papers.
Numbered parts are unrelated; each lists some results of a single study.

Study 1
Substance: PhoQ, residues 284 288 289 292 302 303 SACGEM
Technique: Sort-seq
Item: YFP reporter
Medium: E. coli
Setting: PhoQ-PhoP variant library
With: 10 µM Mg2+
Relative to: high Mg2+ state
Reading: higher = stronger signaling
It gave 17.7 for fold induction (PhoP, residues 12 14 15 18 19 LHTVL (Escherichia coli, UniProt P23836)).
It gave 20.2 for fold induction (PhoP, residues 12 14 15 18 19 TQAML (Escherichia coli, UniProt P23836)).
It gave 13.8 for fold induction (PhoP, residues 12 14 15 18 19 NQCAL (Escherichia coli, UniProt P23836)).

Study 2
Target: Interferon regulatory factor 7, full length, phosphomimetic (IRF7, Homo sapiens, UniProt Q92985, residues 1-503, S101K/S471D/S472D/S475D/S476D/S477D/S483D/S484D/S487D)
Chain of UniProt Q92985 (whole entry, unmodified, looked up): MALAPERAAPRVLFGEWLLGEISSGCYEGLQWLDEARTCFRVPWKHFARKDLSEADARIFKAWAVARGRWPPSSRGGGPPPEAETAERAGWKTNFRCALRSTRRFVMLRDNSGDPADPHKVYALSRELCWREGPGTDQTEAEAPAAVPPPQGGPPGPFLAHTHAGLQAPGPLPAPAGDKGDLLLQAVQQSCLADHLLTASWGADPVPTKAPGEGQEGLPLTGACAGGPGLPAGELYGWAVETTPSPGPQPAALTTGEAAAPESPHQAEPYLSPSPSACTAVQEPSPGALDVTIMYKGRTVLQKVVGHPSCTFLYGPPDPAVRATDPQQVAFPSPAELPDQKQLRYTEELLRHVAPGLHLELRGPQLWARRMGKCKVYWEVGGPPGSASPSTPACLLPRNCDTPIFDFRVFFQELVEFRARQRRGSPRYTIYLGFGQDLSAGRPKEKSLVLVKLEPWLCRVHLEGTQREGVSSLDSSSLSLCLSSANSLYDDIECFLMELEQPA
Technique: protein-binding microarray
Molecule type: double-stranded DNA, one strand shown
Medium: in vitro
Concentration: 250 nM
Setting: 60-bp whole probe
With: salmon DNA 0.4 mg/ml
Relative to: random background probes
Reading: higher = stronger binding
Shared flanks, not repeated: GCCTAGCAC … GTCTTGATTCGCTTGACGCTGCTG
`TTAGCTATCGACACTGGGTTAGTGCTA` gave a log fluorescence of -0.347 z-score.
`GACGATCTCAGTTTCAAGACGTGCTAG` has a log fluorescence of 0.298 z-score.
`CTCTTTGTTTCACTTCCTGGTGTGCTA` has a log fluorescence of 3.77 z-score.
With `TCCCCTCTCATTCCAATTCTGTGCTAG` the log fluorescence was 0.638 z-score.
`TTAGGACTGGAGTATCGGTTAGTGCTA` gave a log fluorescence of 0.132 z-score.

Study 3
Target: Histone acetyltransferase KAT6A, winged helix 2, GST fusion (KAT6A, Homo sapiens, UniProt Q92794, residues 85-181)
Technique: protein binding microarray
Molecule type: double-stranded DNA, one strand shown
Medium: in vitro
Concentration: not given
Setting: 8-mer, flanks averaged, mean of 2 arrays, mostly near background
Relative to: not given
Reading: higher = stronger binding
Target sequence (chain): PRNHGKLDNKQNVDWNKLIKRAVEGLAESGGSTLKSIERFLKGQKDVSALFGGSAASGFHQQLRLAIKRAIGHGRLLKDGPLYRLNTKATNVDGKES
`ATCAATTC` has an E-score of 0.0996.
The E-score of `CATGAGTA` is reported as -0.0646.
For `AGCCGTGG`, the E-score was -0.0387.

Study 4
Target: RNA binding protein fox-1 homolog 2, RRM domain, GST-SBP tag (RBFOX2, Homo sapiens, UniProt O43251-10, residues 100-194)
Technique: RNA Bind-n-Seq
Molecule type: RNA
Medium: in vitro
Concentration: 365 nM
Setting: natural RNA segment, single round, ends assumed
Relative to: no-protein control
Reading: higher = stronger binding
Residues (chain): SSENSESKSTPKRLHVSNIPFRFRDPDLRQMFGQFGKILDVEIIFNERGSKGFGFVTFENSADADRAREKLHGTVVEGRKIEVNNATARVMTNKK
Under “RBNS enrichment (R)”, `GGGAGUUCUACAGUCCGACGAUCGAGGUAAUCCUUACAAAAUGAAGGUUUUCAUGCAACUAGAAAUAUAUUUUGAAAUAUAUUUGAUAUAGUACUCUGCCAUUUUCAUCAUGUUAACUUUCAGUGUCACCAUCUGGAAUUCUCGGGUGCCAA` is recorded as 0.439.
`GGGAGUUCUACAGUCCGACGAUCAUGUUGGGUCAAGGUUCUAGGAGCAGGACAGAGUGUUCCUGUCAUAGUACACACUAAGUUUCCCACUAGCAGAGUCCUCGCCAUGUCAUUUCUACCUCCAAAGUCAUCAGUGGAAUUCUCGGGUGCCAA` — result for “RBNS enrichment (R)”: 0.347.
`GGGAGUUCUACAGUCCGACGAUCACAGCCCUCUUUUCUCCUGAAUUUUUAAUGCAGAAGUUUGAAUGAAGCAAGGGAAGGCAUGUAGGGACAGGAAAGGAAACAAUGGAAGGAAAGUGAUUCUGUGAAAAGGAUGGAAUUCUCGGGUGCCAA`: “RBNS enrichment (R)” 4.02.
